Results gathered from unrelated publications.
Every numbered part comes from another study and shows a few of its results, in no order.

Study 1
Target: Fragile X messenger ribonucleoprotein 1, C-terminal low-complexity region (Fmr1, Mus musculus, UniProt P35922)
Technique: RNA Bind-n-Seq
Form: RNA
Matrix: in vitro
Tested at: 200 nM
Setting: whole 134-nt RNA, ends assumed
With: 150 mM LiCl
Reference: input library
Reading: higher = stronger binding
Measurement: log2 enrichment
Library: 7-deaza-guanosine replaces G
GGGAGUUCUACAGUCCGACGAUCCCUGUGCUACACAUCGUAUGUACCGAAUCGGCCCCCCCGGGCCCCCCCGGCCCCCCCGGGAAAGUAUUAUGUUACGCCGUUCGGAUCUGCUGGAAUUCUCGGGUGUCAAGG: 0.912
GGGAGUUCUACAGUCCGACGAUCCAAGUCCUGUGCUACACAUCGUAUGUACCGAAUCGGUUUUUUUGGUUUUUGGAGGAAAGUAUUAUGUUACGCCGUUCGGAUCUGCACUUCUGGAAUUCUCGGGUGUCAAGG: -1.07
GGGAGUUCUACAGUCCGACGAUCGCAGGAAGUAAAAACAAAUGGAAAGGCUUCGGAUAGUGGCAGGGGUGGGGGUUGCUAAGGAAAGGGUGGGAUGGGAGUGGGUAAAGAGUUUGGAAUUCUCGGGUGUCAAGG: 1.28
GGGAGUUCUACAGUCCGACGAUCCAAGUCCUGUGCUACACAUCGUAUGUACCGAAUCGGAAAAAGGAGGUUUUUUUGGAAAGUAUUAUGUUACGCCGUUCGGAUCUGCACUUCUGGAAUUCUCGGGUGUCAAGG: -1.34
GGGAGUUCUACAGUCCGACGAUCGCAGGAAGUACAAACAAAUGGAAAUGCUUCGGAUAGUGGCAGGGGUGGGGGUUGCUAAGGAAAGGGUGGGAUGGGAGUGGGUAAAGAGUUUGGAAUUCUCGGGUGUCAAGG: 1.86
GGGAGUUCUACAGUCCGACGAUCGUCCUGUGCUACACAUCGUAUGUACCGAAUCGGGGUGGGGUUUUUGGGGUUUUUGGGGAAAGUAUUAUGUUACGCCGUUCGGAUCUGCACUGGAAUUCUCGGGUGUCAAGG: 0.347
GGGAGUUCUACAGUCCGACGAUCGACUCUGAAGAAGAAGCUAUGGAGACUACACCAGCCAAAGGAAAGAAAGCUGCAAAAGUUGUUCCUGUGAAAGCCAAGAACGUGGCUGAGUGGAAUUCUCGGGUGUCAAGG: -1.47
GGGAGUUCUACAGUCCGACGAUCGCAGGAACUAAAAACAAAUGGAAAUGCUUCGGAUAGUGGCAGGGGUGGGGGUUGCUAAGGAAAGGGUGGGAUGGGAGUGGGUAAAGAGUUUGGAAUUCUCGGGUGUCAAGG: 1.87
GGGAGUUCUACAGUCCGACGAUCUCCUGUGCUACACAUCGUAUGUACCGAAUCGGGGUUUUUGGGGUUUUUGGGGAAAGGGGAAAGUAUUAUGUUACGCCGUUCGGAUCUGCAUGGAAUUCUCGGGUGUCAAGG: -0.711
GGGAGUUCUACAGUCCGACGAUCCCUGUGCUACACAUCGUAUGUACCGAAUCAAACCCCCCCAAACCCCCAAAUUUUUUUAAAAAAGUAUUAUGUUACGCCGUUCGGAUCUGCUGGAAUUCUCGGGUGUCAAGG: 1.41
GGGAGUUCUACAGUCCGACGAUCGUUGUAGACACUCCUGGGAUCCUGGACCACCCUCUGGAGGAUAGGAACACCAUCGAGAUGCAGGCCAUCACUGCCCUGGCCCACCUCCGUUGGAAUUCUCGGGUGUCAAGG: 1.5

Study 2
Target: Prothrombin, mature alpha-thrombin (F2, Homo sapiens, UniProt P00734)
Technique: aptamer microarray, sandwich
Form: DNA with 2'F-ANA
Matrix: in vitro
Tested at: 200 nM
Setting: whole 15-mer aptamer, many near background
With: Cy3 exosite-II aptamer, 400 nM
Reading: higher = stronger binding
Measurement: mean fluorescence intensity
Sequence: GGTTGGTGTGGTTGG
2'F-ANA at 2 4 9 10 13: 76.5 a.u.
2'F-ANA at 1 3 8 9 10 14 15: 58.4 a.u.
2'F-ANA at 2 4 11 12 13 14: 120 a.u.
2'F-ANA at 1 4 5 6 10 11 12 14: 52.1 a.u.
2'F-ANA at 2 5 6 8 9 10 11 12 14 15: 48.1 a.u.
2'F-ANA at 1 3 5 6 7 8 9 10 11 12 13 14: 66.8 a.u.
2'F-ANA at 5 6 7 8 9 10 13 14: 48.5 a.u.
2'F-ANA at 1 2 4 9: 137 a.u.
2'F-ANA at 2 4 5 8 9 11 12 13: 80.5 a.u.
2'F-ANA at 3 5 6 7 10 11 13: 49.7 a.u.
2'F-ANA at 3 5 8 9 12 13 14 15: 106 a.u.
2'F-ANA at 1 2 3 6 9 10 13 14 15: 56.6 a.u.
2'F-ANA at 2 4 5 7 9 10 13 15: 52.5 a.u.
2'F-ANA at 3 8 9 10 12 13 14: 406 a.u.
2'F-ANA at 1 4 5 6 8 11 12 13 14 15: 124 a.u.
2'F-ANA at 2 3 4 5 6 8 10 11 13 14 15: 55.1 a.u.
2'F-ANA at 1 3 6 7 8 11 13: 349 a.u.
2'F-ANA at 1 2 4 6 7 8 11 12 14 15: 79.2 a.u.
2'F-ANA at 1 7 8 9 10 11 13 14: 77.5 a.u.
2'F-ANA at 3 4 5 6 7 9 14: 78.1 a.u.
2'F-ANA at 2 4 5 10 11 12 13 15: 49.9 a.u.
2'F-ANA at 2 4 5 9 13 14: 42.2 a.u.

Study 3
Target: RNA binding protein fox-1 homolog 2, RRM domain, GST-SBP tag (RBFOX2, Homo sapiens, UniProt O43251-10, residues 100-194)
Technique: RNA Bind-n-Seq
Form: RNA
Matrix: in vitro
Tested at: 365 nM
Setting: natural RNA segment, single round, ends assumed
Reference: no-protein control
Reading: higher = stronger binding
Measurement: RBNS enrichment (R)
Residues (chain): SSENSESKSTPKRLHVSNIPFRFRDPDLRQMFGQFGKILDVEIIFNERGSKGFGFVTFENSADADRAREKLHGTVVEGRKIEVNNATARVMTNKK
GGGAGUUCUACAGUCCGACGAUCAUCACAAGCAAAAGGUCAGAACAGUUAAACACUGCCUUUCCUCCUCCUCUUAUUUUAUGAUAAAAGCAAAUGUGGCCUUCUCAGUAUCAUUCGAUUGCUAUUUGAGACUUUGGAAUUCUCGGGUGCCAA: 0.239
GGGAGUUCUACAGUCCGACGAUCUGUUUAGUGGGCACAAGCUGUAAUAUUCAGCAAAACUUUGUCGACUGGCACUGUUUACAAGUCUGUUAGCUGCAUAAGCUCAAUAAAAAGUUGGUCUGGGCAUUACAUCCUGGAAUUCUCGGGUGCCAA: 0.247
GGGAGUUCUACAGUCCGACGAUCCCUUUUGUACUCAGUAUCUGUCUUCCAGAAACCUCACCUGCCUUCUCUCUCAUGUGGUCUCUUAAUCCAGUAAUUGUAUUACUGCCAUUAAAGGAUGCAGUUAUUUUAAAUGGAAUUCUCGGGUGCCAA: 0.294
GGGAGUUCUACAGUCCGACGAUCUUCAGAGAAAAAUCUUAAAAGCAGACCAUCCUUUUUUGCAUGCUCUAUUCUAAGUAGAAUGUUCAAUGUAACUGACUAAAAUUGCAUGUUAAAGAUAUUUAGGUUUUUUUUGGAAUUCUCGGGUGCCAA: 10.7
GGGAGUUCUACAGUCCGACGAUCCAUUUUAAUUUGUUCUUGAUUUGUAUGAUGUUGGGGGCGUUAGCAUUACGUGUUGAAUAUUUUGAGUAAGAAGAAAAGAAUCCAUCUUCAGAAUAUAGGGUUGUUCUUUGUGGAAUUCUCGGGUGCCAA: 1.64
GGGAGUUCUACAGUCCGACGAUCAAGUUGAAGAGUACUUUUGAUCAGUUUAUGAUUCAGUUUAUGAUUUUAGUUUUUGCCUUCAUGUUAUACAUUUAUGAUUUGAAACUGUACAUCUGUUACCUUGAAAAACAUGGAAUUCUCGGGUGCCAA: 0.766
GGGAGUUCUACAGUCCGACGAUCUUUUUUUUUUUUUACUCCCCCUCUAAACACUGCUGCUGCCUUAAUUUUAGAAAGCAGCUUACUAGUUUACCCUUGUGGUAUAAAGUAUUAUAAAUUGUUGUGAAUUUGAAUGGAAUUCUCGGGUGCCAA: 0.715
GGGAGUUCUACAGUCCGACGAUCUUCCCUAUGCCAACUCACGACUCCUACAGGUACUAGUCACUCAUCUACCAGAUUCUGCCUAUGUAAAAUGAAUUGAAAAACAAUUUUCUGUAAUCUUUUAUUUAAGUAGUUGGAAUUCUCGGGUGCCAA: 0.432
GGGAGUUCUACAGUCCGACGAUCAAACAGGUAUAUGGAUUUAUCAAGGAGGGCAUUGGCUGCCCCUGGGGUAUUGCCACGCUGUUGUCUUGCUGCCCAUUCACUCCAUGUGCUGCUGUCCUUCCUUCACUUCAUGGAAUUCUCGGGUGCCAA: 0.548
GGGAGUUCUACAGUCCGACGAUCUUUAUAGCAGGUCCCAGUGAACCACAAGAAUGGCGAGGGUUAUCUGGUUACAGUUGGAUCAAUCAGUAUAUAUCAGAUUUCUGGUGUUUCAAGCAAGAAGCGGGCGGAGUUGGAAUUCUCGGGUGCCAA: 0.617
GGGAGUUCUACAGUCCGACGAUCACCCAGCAACCAGCCUCUCAUUUUCAGGGCAGGCAGCAGAGACCCGGGUCUCUUGCCUUGAGAUGGGGGGAGUCCUAGGAAGAAGAGUGGUCUGGUCCUGUUUCUGCAGAUGGAAUUCUCGGGUGCCAA: 0.511
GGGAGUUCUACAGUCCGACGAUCCUUGAUUUUUUUCAAGUGUGGUAUUCAUUUUUAACCCAUUUCCGCUUUAGGUCUUCCUGGUUUUUCAUAGUCAACAUUCCACUGAAAUGUACAUAGAAUUGCCAGUGUAUUGGAAUUCUCGGGUGCCAA: 0.451

Study 4
Target: Interferon regulatory factor 3, full length, phosphomimetic (IRF3, Homo sapiens, UniProt Q14653, residues 1-427, S386D/S396D/S398D/S402D/T404D/S405D)
Technique: protein-binding microarray
Form: double-stranded DNA, one strand shown
Matrix: in vitro
Tested at: 2540 nM top
Setting: 60-bp whole probe
With: salmon DNA 0.4 mg/ml
Reference: random background probes
Reading: higher = stronger binding
Measurement: fitted relative affinity
All sequences stand within: GCCTAGCAC … GTCTTGATTCGCTTGACGCTGCTG
Residues (chain): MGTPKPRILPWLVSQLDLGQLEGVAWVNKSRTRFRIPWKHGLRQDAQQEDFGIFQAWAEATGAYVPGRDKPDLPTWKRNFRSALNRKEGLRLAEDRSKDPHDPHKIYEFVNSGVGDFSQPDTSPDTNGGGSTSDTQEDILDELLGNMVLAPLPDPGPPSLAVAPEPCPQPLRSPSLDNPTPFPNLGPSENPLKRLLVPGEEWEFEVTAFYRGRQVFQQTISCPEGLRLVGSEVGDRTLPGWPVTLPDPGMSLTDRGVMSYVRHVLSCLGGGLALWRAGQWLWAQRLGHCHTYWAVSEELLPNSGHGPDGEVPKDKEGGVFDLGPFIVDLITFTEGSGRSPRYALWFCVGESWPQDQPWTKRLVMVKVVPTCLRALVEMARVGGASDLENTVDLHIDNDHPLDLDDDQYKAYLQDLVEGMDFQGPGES
GACCATCTCAGTATCGAGACGTGCTAG: 1.51 z-score
TTATGACTGGGTATCGGTTAGTGCTAG: 0.669 z-score
TGCGGTTCAGATATAGGATAGTGCTAG: 0.468 z-score
ATATATATTCATATATATATGTGCTAG: 1.14 z-score
GACGGACTGGGGACTTGGGACGTGCTA: -0.94 z-score
GACGGTATCGGCTTTCGGGACGTGCTA: 1.36 z-score
TCAGTTTTACAATTTGCACTGTGCTAG: 2.2 z-score
GCCGGTTTCGGTTCCGGGACGTGCTAG: 10.8 z-score
TCAACCTTCGAGTCTGCAACTGTGCTA: -0.18 z-score
GACGGTTTCGGTCTCGGGCCGTGCTAG: 8.54 z-score
TCAAAACTCTTTATTTAACTGTGCTAG: -0.074 z-score
TTAAGTATCGGGTATCGGTTAGTGCTA: 2.17 z-score
GACGAACTGGCGTATCGAGACGTGCTA: -0.359 z-score
GAAGGACTGGGTTTCGGGACGTGCTAG: 1.04 z-score
TTAGGTCTCCGTTTCCTTTAGTGCTAG: 4.56 z-score
CAAACACTAATTTTCAATTCGTGCTAG: 2.02 z-score
GACGGTCTCGGACAGGGGACGTGCTAG: -0.0642 z-score
GACGGTTTCGACTATCGGAACGTGCTA: 3.26 z-score
TTAGATTTCAGTTGCGATTAGTGCTAG: 1.61 z-score
GACGGACTGCTTATCGTGACGTGCTAG: -0.358 z-score

Study 5
Target: Sal-like protein 4, full length isoform A (SALL4, Homo sapiens, UniProt Q9UJQ4, residues 1-1053)
Sequence of UniProt Q9UJQ4 (whole entry, looked up): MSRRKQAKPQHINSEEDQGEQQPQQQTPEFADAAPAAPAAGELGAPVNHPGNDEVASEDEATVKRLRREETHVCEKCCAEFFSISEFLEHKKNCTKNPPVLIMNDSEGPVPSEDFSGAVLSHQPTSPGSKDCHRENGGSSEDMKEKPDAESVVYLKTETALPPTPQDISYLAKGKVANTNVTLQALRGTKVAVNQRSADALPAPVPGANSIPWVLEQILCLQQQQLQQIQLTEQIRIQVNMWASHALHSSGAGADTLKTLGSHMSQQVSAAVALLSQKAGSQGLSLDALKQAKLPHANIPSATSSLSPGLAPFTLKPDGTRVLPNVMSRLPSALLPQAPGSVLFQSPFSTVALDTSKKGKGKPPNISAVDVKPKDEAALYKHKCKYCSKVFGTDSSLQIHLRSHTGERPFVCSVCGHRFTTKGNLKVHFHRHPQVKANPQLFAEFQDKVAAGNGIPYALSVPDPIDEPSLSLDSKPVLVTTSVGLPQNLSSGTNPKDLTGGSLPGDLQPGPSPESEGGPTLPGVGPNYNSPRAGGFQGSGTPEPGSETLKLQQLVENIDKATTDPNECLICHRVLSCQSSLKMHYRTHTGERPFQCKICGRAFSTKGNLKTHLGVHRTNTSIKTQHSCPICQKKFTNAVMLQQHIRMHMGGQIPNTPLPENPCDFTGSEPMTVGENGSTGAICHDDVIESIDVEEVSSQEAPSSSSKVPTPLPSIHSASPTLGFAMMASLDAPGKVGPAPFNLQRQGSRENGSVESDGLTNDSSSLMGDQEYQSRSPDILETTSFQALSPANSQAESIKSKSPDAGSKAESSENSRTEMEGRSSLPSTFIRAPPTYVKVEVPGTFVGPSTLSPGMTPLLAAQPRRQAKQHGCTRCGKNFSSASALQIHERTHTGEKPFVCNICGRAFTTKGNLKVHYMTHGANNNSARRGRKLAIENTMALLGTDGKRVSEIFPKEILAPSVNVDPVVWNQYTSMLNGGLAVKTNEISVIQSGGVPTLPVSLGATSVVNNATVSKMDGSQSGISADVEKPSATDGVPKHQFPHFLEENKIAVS
Technique: universal PBM
Form: double-stranded DNA, one strand shown
Matrix: in vitro
Tested at: 600 nM
Setting: 8-mer, flanks averaged, mean of replicates
Reading: higher = stronger binding
Measurement: E-score
ACAAACAT: 0.204
ACACAGAG: -0.0659
TAAGCACA: 0.0412
GATATCCA: 0.171
GTCGCAAA: 0.0502
TCGGGGCA: -0.253
AAAAGCCT: 0.0514
CGTGATCA: 0.0915
ACCGTTCC: -0.105
ATCTCGTA: 0.237
AGGAACCA: -0.199
GCTTGGTA: -0.0837
AAGGCGGG: -0.235
TACGTCTA: 0.118
AACATTGA: 0.256
ACGTCCCT: -0.089
CTTCAAAG: 0.133
TAGTGACA: 0.101
AGGACCGG: -0.403
GCACGATA: 0.0722
GACCATCA: -0.0603
CGCGACCG: -0.302
ACCGTACG: -0.21
ATCTACTG: 0.162
